# Assay results gathered from unrelated publications.
# Numbers after ± are the reported error.
Structure (SMILES),test system,setting,tissue uptake
O=C(NCC1OC2CCC=CCCC2O1)c1ccc(COCCOCCOCC[18F])cc1 (stereo not drawn),"healthy female BALB/c nude mice, muscle","intravenous, 7.4 MBq per mouse, 60 min",1.9 ± 0.5 %ID/g
[123I]c1ccc2nc(-c3ccc(-n4ccnn4)nc3)cn2c1,"male Wistar rat, large intestine","intravenous, 4 MBq, 5 min",0.235 ± 0.049 %ID/g
CCOC(=O)CNC(=O)CN1CCN(CC(=O)NCC(=O)OCC)CCN(CC(=O)NCC(=O)OCC)CCN(CC(=O)NCC(=O)OCC)CC1.[177Lu+3],"Sprague-Dawley rat, muscle","intravenous (tail vein), dose not given, 2 h",0.014 ± 0.004 % injected dose/g
CN(CCCO)Cc1ccc(-c2noc(-c3ccc(OCC[18F])c(C(F)(F)F)c3)n2)cc1F,"Sprague-Dawley rats, male, pancreas",5 min post-injection,1.68 ± 0.14 %ID/g
COc1cccc(OC)c1-c1cc(C(=O)NC2(C(=O)O)C3CC4CC(C3)CC2C4)nn1-c1ccc(C(=O)N(C)CCCN(C)CCCN(C)C(=O)[C@H](CCCCNC(=O)[C@H](CC(C)C)NC(=O)C2OC2C(=O)O)NC(=O)CN2CCN(CC(=O)[O-])CCN(CC(=O)[O-])CCN(CC(=O)[O-])CC2)cc1C(C)C.[177Lu+3] (mixture of isomers),"mouse HT-29 xenograft, large intestine","72 h post injection, biodistribution",0.158 %ID/g
N#C[C@@H]1CC(F)(F)CN1C(=O)CNC(=O)c1ccnc2c(NC(=O)CCOCCOCCOCCOCCOCCOCCNC(=O)[C@H](CCCCNC(=O)CN3CCN(CC(=O)[O-])CCN(CC(=O)[O-])CCN(CC(=O)[O-])CC3)NC(=O)CCCc3ccc(I)cc3)cccc12.[177Lu+3],"mouse, U-87 MG tumour xenograft, spleen",4 h,0.66 ± 0.17 %ID/g
O=C(O)CCCOc1ccc([18F])cc1-c1cc(-c2ccccc2C(F)(F)F)n(-c2ccccc2)n1,"mouse, small intestine","intravenous, dose not given, 30 min",3.52 ± 0.34 %ID/g
CC(C(=O)O)n1nc(Cn2cc3cc(OCC[18F])c(Cl)cc3n2)c2ccccc2c1=O (racemic),"Sprague-Dawley rat male, fat",120 min,0.01 ± 0.01 %ID/g
COc1cccc(OC)c1-c1cc(C(=O)NC2(C(=O)O)C3CC4CC(C3)CC2C4)nn1-c1ccc(C(=O)NCCNC(=O)[C@H](CCCCNC(=O)[C@H](CC(C)C)NC(=O)C2OC2C(=O)O)NC(=O)CN2CCN(CC(=O)[O-])CCN(CC(=O)[O-])CCN(CC(=O)[O-])CC2)cc1C(C)C.[177Lu+3] (mixture of isomers),"mouse, HT-29 xenograft, brain",72 h post injection,0.008 %ID/g
Cc1cc(C)n(CCN(CCN)CCCCCCNC(=O)[C@@H](N)Cc2c[nH]cn2)n1.[99Tc+].[C-]#[O+].[C-]#[O+].[C-]#[O+],"BALB/c nude mice, A549 xenograft, brain","intravenous, 4 h",0.05 ± 0.01 %IA/g
COc1cccc(OC)c1-c1cc(C(=O)NC2(C(=O)O)C3CC4CC(C3)CC2C4)nn1-c1ccc(C(=O)N(C)CCOCCOCCN(C)C(=O)[C@H](CCCCNC(=O)[C@H](CC(C)C)NC(=O)C2OC2C(=O)O)NC(=O)CN2CCN(CC(=O)[O-])CCN(CC(=O)[O-])CCN(CC(=O)[O-])CC2)cc1C(C)C.[177Lu+3] (mixture of isomers),"mouse, HT-29 xenograft, heart",4 h post injection,1.6 %ID/g
O=C(CN1CCN(CC(=O)NCc2ncccc2O)CCN(CC(=O)NCc2ncccc2O)CCN(CC(=O)NCc2ncccc2O)CC1)NCc1ncccc1O.[177Lu+3],"Sprague-Dawley rat, muscle","intravenous (tail vein), dose not given, 2 h",0.013 ± 0.006 % injected dose/g
O=C(NCC1OC2CCC=CCCC2O1)c1ccc([18F])nc1 (stereo not drawn),"healthy female BALB/c nude mice, lungs","intravenous, 7.4 MBq per mouse, 2 min",5.4 ± 0.6 %ID/g
N#C[C@@H]1CC(F)(F)CN1C(=O)CNC(=O)c1ccnc2c(NC(=O)[C@@H](N)CCCCNC(=O)CCOCCOCCOCCOCCOCCOCCNC(=O)CN3CCN(CC(=O)[O-])CCN(CC(=O)[O-])CCN(CC(=O)[O-])CC3)cccc12.[177Lu+3],"mouse, U-87 MG tumour xenograft, spleen",4 h,0.14 ± 0.01 %ID/g
COc1cccc(OC)c1-c1cc(C(=O)NC2(C(=O)O)C3CC4CC(C3)CC2C4)nn1-c1ccc(C(=O)N(C)CCCN(C)C(=O)[C@H](CCCCNC(=O)[C@H](CC(C)C)NC(=O)C2OC2C(=O)O)NC(=O)CN2CCN(CC(=O)[O-])CCN(CC(=O)[O-])CCN(CC(=O)[O-])CC2)cc1C(C)C.[177Lu+3] (mixture of isomers),"mouse, HT-29 xenograft, HT-29 tumour",72 h post injection,1.83 %ID/g
COc1ccc(Nc2nc(Nc3ccc(OCCOCC[18F])cc3)ncc2Br)cc1,"ICR mice, S180 tumour, muscle","intravenous, 30 min, together with: PF-562271 33 mg/kg oral 1 h before",2.64 ± 0.13 %ID/g
COc1cccc(OC)c1-c1cc(C(=O)NC2(C(=O)O)C3CC4CC(C3)CC2C4)nn1-c1ccc(C(=O)N(C)CCOCCN(C)C(=O)[C@H](CCCCNC(=O)[C@H](CC(C)C)NC(=O)C2OC2C(=O)O)NC(=O)CN2CCN(CC(=O)[O-])CCN(CC(=O)[O-])CCN(CC(=O)[O-])CC2)cc1C(C)C.[177Lu+3] (mixture of isomers),"mouse, HT-29 xenograft, spleen",168 h post injection,1.1 %ID/g
CCCC[C@H](NC(=O)CCCCCCCNC(=O)CN1CCN(CC(=O)O)CCN(CC(=O)O)CC1)C(=O)N[C@H]1CC(=O)NCCCC[C@@H](C(N)=O)NC(=O)[C@H](Cc2c[nH]c3ccccc23)NC(=O)[C@H](CCCNC(=N)N)NC(=O)[C@@H](Cc2ccccc2)NC(=O)[C@H](Cc2c[nH]cn2)NC1=O [fluorine-18 labelled],"C57 mice, B16/F10 melanoma, muscle","intravenous, 1 h, together with: NDP-MSH 10 µg",0.42 ± 0.09 %ID/g

# For quick reference, copied from above:
Structure (SMILES),test system,setting,tissue uptake
O=C(O)CCCOc1ccc([18F])cc1-c1cc(-c2ccccc2C(F)(F)F)n(-c2ccccc2)n1,"mouse, small intestine","intravenous, dose not given, 30 min",3.52 ± 0.34 %ID/g
COc1ccc(Nc2nc(Nc3ccc(OCCOCC[18F])cc3)ncc2Br)cc1,"ICR mice, S180 tumour, muscle","intravenous, 30 min, together with: PF-562271 33 mg/kg oral 1 h before",2.64 ± 0.13 %ID/g
CN(CCCO)Cc1ccc(-c2noc(-c3ccc(OCC[18F])c(C(F)(F)F)c3)n2)cc1F,"Sprague-Dawley rats, male, pancreas",5 min post-injection,1.68 ± 0.14 %ID/g
